Results from different studies.
Numbers after ± are the reported error.
SLCO1B3: Solute carrier organic anion transporter family member 1B3 (SLCO1B3, Homo sapiens, UniProt Q9NPD5)
Sequence of UniProt Q9NPD5 (whole entry, unmodified, looked up): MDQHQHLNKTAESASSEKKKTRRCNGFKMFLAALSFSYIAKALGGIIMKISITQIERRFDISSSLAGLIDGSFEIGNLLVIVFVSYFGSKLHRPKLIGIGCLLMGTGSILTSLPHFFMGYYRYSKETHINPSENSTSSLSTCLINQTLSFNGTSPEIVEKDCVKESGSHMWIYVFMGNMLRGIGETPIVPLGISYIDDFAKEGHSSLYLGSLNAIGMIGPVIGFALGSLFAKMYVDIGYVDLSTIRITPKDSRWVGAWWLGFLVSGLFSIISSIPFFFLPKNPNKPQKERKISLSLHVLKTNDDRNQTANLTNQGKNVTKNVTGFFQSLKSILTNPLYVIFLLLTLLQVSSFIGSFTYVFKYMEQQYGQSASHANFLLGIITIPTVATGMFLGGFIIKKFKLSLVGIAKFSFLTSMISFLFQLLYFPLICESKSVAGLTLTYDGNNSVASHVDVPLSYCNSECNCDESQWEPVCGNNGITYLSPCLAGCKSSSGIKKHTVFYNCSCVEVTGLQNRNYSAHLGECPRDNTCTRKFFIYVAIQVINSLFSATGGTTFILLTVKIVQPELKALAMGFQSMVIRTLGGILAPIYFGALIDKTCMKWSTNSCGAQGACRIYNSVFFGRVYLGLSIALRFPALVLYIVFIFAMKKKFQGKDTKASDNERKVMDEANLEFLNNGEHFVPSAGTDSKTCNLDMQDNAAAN
NR1I2: Nuclear receptor subfamily 1 group I member 2 (NR1I2, Homo sapiens, UniProt O75469)
Sequence of UniProt O75469 (whole entry, looked up): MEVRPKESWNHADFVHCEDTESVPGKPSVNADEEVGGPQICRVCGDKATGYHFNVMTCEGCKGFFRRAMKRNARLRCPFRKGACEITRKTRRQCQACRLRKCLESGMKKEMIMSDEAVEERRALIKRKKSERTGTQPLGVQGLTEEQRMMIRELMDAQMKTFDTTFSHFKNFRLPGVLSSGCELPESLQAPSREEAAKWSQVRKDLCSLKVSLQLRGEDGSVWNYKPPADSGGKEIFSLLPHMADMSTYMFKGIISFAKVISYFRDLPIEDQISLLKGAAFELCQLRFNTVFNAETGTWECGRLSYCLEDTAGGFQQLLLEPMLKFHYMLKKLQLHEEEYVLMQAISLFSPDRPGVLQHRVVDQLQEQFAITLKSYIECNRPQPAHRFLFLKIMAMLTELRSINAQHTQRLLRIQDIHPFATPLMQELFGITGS
CYP2C9: Cytochrome P450 2C9 (CYP2C9, Homo sapiens, UniProt P11712)
Sequence of UniProt P11712 (whole entry, looked up): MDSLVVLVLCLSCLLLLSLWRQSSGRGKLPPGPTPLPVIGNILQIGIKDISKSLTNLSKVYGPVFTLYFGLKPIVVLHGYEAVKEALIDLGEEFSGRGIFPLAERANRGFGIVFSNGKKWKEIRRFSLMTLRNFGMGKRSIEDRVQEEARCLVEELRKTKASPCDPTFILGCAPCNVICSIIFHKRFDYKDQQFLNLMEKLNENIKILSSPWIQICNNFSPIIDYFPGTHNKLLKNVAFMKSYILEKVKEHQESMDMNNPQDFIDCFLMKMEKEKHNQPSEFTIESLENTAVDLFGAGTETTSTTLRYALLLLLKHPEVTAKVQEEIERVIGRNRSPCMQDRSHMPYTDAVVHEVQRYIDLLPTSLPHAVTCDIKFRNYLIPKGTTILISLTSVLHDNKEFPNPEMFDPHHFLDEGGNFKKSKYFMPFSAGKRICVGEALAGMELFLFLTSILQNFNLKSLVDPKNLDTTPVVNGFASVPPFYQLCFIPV
SLCO1B3 S112A: Solute carrier organic anion transporter family member 1B3 (SLCO1B3, Homo sapiens, UniProt Q9NPD5, S112A)
CYP2D6: Cytochrome P450 2D6 (CYP2D6, Homo sapiens, UniProt P10635)
Sequence of UniProt P10635 (whole entry, looked up): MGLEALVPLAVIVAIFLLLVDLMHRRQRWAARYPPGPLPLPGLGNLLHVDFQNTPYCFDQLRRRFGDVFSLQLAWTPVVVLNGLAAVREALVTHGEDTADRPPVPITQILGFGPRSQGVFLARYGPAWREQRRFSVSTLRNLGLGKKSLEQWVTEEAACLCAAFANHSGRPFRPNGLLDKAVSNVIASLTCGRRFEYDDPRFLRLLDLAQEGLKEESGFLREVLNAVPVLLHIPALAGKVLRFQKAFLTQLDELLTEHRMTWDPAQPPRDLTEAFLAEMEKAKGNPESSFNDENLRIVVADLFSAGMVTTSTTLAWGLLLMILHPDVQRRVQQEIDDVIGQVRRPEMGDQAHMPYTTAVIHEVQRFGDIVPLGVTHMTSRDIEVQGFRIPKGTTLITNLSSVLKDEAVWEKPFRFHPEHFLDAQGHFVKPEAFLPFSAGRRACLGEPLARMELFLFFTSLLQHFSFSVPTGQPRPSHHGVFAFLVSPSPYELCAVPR
Sequence of UniProt Q8VCR2 (whole entry, looked up): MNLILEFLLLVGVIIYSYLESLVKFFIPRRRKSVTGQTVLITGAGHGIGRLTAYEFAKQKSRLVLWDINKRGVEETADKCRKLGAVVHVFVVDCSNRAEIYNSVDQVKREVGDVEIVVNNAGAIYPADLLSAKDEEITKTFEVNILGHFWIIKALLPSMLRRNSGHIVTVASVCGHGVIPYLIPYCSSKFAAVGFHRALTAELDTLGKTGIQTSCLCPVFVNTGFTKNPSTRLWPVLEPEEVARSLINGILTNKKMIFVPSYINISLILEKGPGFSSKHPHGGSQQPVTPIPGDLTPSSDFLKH
Sequence of UniProt P51589 (whole entry, looked up): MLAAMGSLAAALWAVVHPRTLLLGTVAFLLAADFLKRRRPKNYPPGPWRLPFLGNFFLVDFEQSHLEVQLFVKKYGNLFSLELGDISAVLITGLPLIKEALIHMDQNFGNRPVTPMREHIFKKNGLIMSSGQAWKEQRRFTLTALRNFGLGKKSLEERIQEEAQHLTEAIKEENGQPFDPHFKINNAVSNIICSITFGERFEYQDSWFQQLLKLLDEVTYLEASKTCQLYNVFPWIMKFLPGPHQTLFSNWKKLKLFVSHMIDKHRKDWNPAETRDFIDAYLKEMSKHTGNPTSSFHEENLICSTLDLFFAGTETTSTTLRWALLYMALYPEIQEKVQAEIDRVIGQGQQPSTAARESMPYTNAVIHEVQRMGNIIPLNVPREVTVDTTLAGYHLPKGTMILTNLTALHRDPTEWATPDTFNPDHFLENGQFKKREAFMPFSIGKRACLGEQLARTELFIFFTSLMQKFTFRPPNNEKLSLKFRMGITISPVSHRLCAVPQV
Sequence of UniProt Q96JM7 (whole entry, looked up): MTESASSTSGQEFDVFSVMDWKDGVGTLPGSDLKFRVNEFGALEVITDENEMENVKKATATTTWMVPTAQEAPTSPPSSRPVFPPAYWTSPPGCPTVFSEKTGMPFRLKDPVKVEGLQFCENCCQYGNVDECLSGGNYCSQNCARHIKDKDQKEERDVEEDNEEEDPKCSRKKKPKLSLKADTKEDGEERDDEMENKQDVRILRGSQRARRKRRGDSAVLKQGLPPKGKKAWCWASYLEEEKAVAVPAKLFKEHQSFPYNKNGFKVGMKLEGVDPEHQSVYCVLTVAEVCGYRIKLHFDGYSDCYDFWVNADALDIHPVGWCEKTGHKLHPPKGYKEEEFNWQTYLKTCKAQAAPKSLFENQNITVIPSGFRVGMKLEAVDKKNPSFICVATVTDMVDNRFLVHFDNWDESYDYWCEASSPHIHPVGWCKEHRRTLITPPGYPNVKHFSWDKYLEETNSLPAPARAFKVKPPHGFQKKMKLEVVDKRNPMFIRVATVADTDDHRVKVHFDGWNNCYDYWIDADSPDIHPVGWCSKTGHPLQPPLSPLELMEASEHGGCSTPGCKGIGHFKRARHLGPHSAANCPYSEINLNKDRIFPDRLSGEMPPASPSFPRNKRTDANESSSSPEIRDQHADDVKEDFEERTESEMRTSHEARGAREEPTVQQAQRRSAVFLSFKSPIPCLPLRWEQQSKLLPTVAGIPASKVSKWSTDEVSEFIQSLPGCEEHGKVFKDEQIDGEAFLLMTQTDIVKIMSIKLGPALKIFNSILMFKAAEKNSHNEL
Sequence of UniProt O15439 (whole entry, looked up): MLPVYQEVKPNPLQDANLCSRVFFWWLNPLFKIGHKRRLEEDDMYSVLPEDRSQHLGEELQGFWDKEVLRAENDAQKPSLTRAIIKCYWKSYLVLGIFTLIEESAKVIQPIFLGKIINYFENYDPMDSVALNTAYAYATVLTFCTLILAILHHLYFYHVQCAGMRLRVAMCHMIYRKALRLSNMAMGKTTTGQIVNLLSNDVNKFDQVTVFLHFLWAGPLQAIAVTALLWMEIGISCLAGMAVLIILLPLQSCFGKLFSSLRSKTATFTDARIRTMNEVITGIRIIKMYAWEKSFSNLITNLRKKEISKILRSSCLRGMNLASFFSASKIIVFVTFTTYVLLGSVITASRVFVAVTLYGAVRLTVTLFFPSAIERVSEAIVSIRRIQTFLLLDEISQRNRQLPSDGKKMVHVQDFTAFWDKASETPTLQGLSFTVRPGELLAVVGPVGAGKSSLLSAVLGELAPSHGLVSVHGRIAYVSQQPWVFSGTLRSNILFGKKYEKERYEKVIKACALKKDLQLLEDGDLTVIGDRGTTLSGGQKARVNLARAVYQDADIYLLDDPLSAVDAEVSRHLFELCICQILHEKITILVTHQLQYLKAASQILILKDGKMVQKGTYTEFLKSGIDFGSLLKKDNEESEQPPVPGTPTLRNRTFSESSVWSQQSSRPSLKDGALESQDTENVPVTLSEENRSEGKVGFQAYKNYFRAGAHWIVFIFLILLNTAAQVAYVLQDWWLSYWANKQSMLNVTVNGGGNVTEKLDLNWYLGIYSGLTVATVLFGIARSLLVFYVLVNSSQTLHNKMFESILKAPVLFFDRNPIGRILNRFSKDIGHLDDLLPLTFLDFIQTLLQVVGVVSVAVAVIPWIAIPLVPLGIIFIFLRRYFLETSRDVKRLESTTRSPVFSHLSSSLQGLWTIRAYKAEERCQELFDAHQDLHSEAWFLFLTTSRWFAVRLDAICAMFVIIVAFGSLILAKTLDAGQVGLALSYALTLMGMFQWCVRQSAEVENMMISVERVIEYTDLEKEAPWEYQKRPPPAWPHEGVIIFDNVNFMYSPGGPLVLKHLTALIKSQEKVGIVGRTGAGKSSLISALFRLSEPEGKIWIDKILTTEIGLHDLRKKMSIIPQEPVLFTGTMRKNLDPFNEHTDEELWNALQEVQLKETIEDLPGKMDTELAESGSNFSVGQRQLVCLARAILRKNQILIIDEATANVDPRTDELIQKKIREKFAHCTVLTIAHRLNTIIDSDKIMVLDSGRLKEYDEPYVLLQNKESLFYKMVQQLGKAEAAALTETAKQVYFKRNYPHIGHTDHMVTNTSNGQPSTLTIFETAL

With C=C[C@@H]1C[C@]1(NC(=O)[C@@H]1C[C@@H]2CN1C(=O)[C@H](C(C)(C)C)NC(=O)O[C@@H]1C[C@H]1CCCCCc1nc3ccc(OC)cc3nc1O2)C(=O)NS(=O)(=O)C1CC1 the Vmax was 3.08 pmol/min/mg protein (SLCO1B3; uptake, substrate; HEK293 transfected; relative activity factor scaled; reference: mock cells).
CC[C@H]1[C@@H](O)[C@@H]2[C@H](CC[C@]3(C)[C@@H]([C@H](C)CCNC(=O)NS(=O)(=O)c4ccc(C(C)(C)C)cc4)CC[C@@H]23)[C@@]2(C)CC[C@@H](O)C[C@@H]12 gave a half-life of 11.1 h (ATP-dependent translocase ABCB1 (ABCB1, Homo sapiens, UniProt P08183); human, plasma; dose not given, geometric mean, with: quinidine).
For CC(C)Nc1ccnc(Nc2cccc(-c3ccccc3)c2)n1, the Papp (B-A) was 0.886 ± 0.217 ×10⁻⁶ cm/s (P-glycoprotein (human MDR1); MDR1-MDCKII; 10 µM, 1 h, pH 7.4).
O=C(O)/C=C/CC(=O)O: “log2 fold change” -0.0534 (binding, MIDAS equilibrium dialysis LC-MS; A2AR-BRIL thermostabilized; concentration not given; reference: no-protein control).
CCCCCCCCC(=O)c1cc(O)c(O)c(O)c1 has an activation of 3.6 fold (NR1I2; reporter gene, agonist, Gal4 hybrid reporter; HEK293T transiently transfected; 10 µM, 16 h, 0.1% DMSO; reference: vehicle).
For CCc1cc(/C(C)=N/OCc2ccc(C3CCCCC3)c(C(F)(F)F)c2)ccc1CN1CC(C(=O)O)C1, the CYP2C9-mediated clearance was 0.165 L/h (CYP2C9; population PK; human, CYP2C9*3/*3, plasma).
For CNC(=O)c1cc(Oc2ccc(NC(=O)Nc3ccc(Cl)c(C(F)(F)F)c3)c(F)c2)ccn1, the Vmax was 2380 ± 1320 pmol/mg protein/min (SLCO1B3; uptake, substrate; HEK293-A stably expressing SLCO1B3; 2 min).
The efflux ratio of c1ccc(-c2cccc(Nc3nccc(NC4CCCCC4)n3)c2)nc1 is reported as 1.18 (P-glycoprotein (human MDR1); MDR1-MDCKII; 10 µM, 1 h, pH 7.4; reference: B-A over A-B).
For C[C@H](O)c1cnc(NS(=O)(=O)c2ccc(C(F)(F)F)c(Cl)c2)nc1, the fraction metabolized was under 0.5 (17-beta-hydroxysteroid dehydrogenase 13 (Mus musculus, UniProt Q8VCR2); substrate; mouse, wild type vs knockout).
With COc1cccc(-c2cccc(Nc3nccc(NC(C)C)n3)c2)c1 the Papp (B-A) was 0.79 ± 0.235 ×10⁻⁶ cm/s (P-glycoprotein (human MDR1); MDR1-MDCKII; 10 µM, 1 h, pH 7.4).
Under “half-maximal activation voltage”, Cc1oc2ccccc2c1Cc1cc(I)c(OCC(=O)O)c(I)c1 is recorded as -19.5 ± 1.5 mV (Voltage-gated inwardly rectifying potassium channel KCNH2 (KCNH2, Homo sapiens, UniProt Q12809); ion current, activator, whole-cell patch clamp; HEK293 expressing hERG1; 10 µM, external K+ 10 mM, 1 s depolarizations).
CC(C)Nc1ccnc(Nc2ccccc2-c2ccccc2)n1 gave a Papp (B-A) of 15 ± 5.19 ×10⁻⁶ cm/s (P-glycoprotein (human MDR1); MDR1-MDCKII; 10 µM, 1 h, pH 7.4).
For CCCCc1oc2ccc(NS(C)(=O)=O)cc2c1C(=O)c1ccc(OCCCN(CCCC)CCCC)cc1, the kinact was 0.02 ± 0.0018 min⁻¹ (Cytochrome P450 2J2 (CYP2J2, Homo sapiens, UniProt P51589); inactivator; with: astemizole substrate).
With CC(C)c1nc(N(C)S(C)(=O)=O)nc(-c2ccc(F)cc2)c1/C=C/[C@@H](O)C[C@@H](O)CC(=O)O the Vmax was 627 ± 323 pmol/mg protein/min (SLCO1B3 S112A; uptake, substrate; HEK293-A stably expressing SLCO1B3; 2 min).
CCc1ccccc1-c1cccc2[nH]c(C(=O)NC[C@@H](N)C(=O)O)cc12 has an apparent permeability of under 10 ×10⁻⁶ cm/s (P-glycoprotein (human MDR1); MDCK canine MDR1 knock-out, human MDR1 transfected; 3 µM, pH 7.4).
COc1cc(O)c(CC=C(C)C)c2c1C(=O)CC(c1ccc(O)cc1)O2 (stereo not drawn) gave an inhibition of 82.1 ± 1.7% (CYP2C9; enzyme activity, inhibitor; human liver microsomes; 10 µM, pH 7.4, with: tolbutamide).
For N#C[C@H](C[C@@H]1CCCNC1=O)NC(=O)[C@H](CC1CC1)NC(=O)c1cc2cccc(Cl)c2[nH]1, the intrinsic clearance was 0.14 µL/min/pmol (CYP2D6; NADPH metabolic stability; 2 µM, pH 7.4, 100 pmol/mL enzyme).
c1cncc(-c2cccc(Nc3nccc(NC4CCCCC4)n3)c2)c1 gave a Papp (B-A) of 10.6 ± 4.04 ×10⁻⁶ cm/s (P-glycoprotein (human MDR1); MDR1-MDCKII; 10 µM, 1 h, pH 7.4).
For CCCCC/C=C\C\C=C/C=C/C=C/[C@@H](SC[C@H](NC(=O)CC[C@H](N)C(=O)O)C(=O)NCC(=O)O)[C@@H](O)CCCC(=O)O, “vesicle uptake ratio” read 25 ± 1.3 (ATP-binding cassette sub-family C member 4 (ABCC4, Homo sapiens, UniProt O15439); substrate, membrane vesicle uptake; 0.1 µM, 10 min; reference: ATP over AMP).
The unbound fraction of CC[C@H](C)CCCCC(=O)N[C@@H](CCN)C(=O)N[C@H](C(=O)N[C@@H](CCN)C(=O)N[C@H]1CCNC(=O)[C@H]([C@@H](C)O)NC(=O)[C@H](CCN)NC(=O)[C@H](CCN)NC(=O)[C@H](CC(C)C)NC(=O)[C@@H](Cc2ccccc2)NC(=O)[C@H](CCN)NC1=O)[C@@H](C)O is reported as 4.6% (plasma proteins; equilibrium dialysis; human, long-term IHD, human plasma; intravenous, 0.75 mg/kg, 4 h, 37 °C, mean).
With CC(C)Nc1ccnc(Nc2cccc(-c3cccnc3)c2)n1 the Papp (A-B) was 80.2 ± 42.1 ×10⁻⁶ cm/s (P-glycoprotein (human MDR1); MDR1-MDCKII; 10 µM, 1 h, pH 7.4).
CNC(=O)c1cc(Oc2ccc(NC(=O)Nc3ccc(Cl)c(C(F)(F)F)c3)cc2)ccn1 has a Vmax of 113 ± 47.4 pmol/mg protein/min (SLCO1B3 S112A; uptake, substrate; HEK293-A stably expressing SLCO1B3; 2 min).
With C=CCN=C=S the inhibition was 75% (CYP2D6; enzyme activity; human liver microsomes; concentration not given, 10 min, with: dextromethorphan).
For N[C@H](CNC(=O)c1cc(Br)c(-c2ccccc2Br)s1)C(=O)O, the apparent permeability was under 10 ×10⁻⁶ cm/s (P-glycoprotein (human MDR1); MDCK canine MDR1 knock-out, human MDR1 transfected; 3 µM, pH 7.4).
CC(C)n1c(/C=C/C(O)CC(O)CC(=O)O)c(-c2ccc(F)cc2)c2ccccc21 (stereo not drawn) has a Vmax of 722 ± 306 pmol/mg protein/min (Solute carrier organic anion transporter family member 1B3 (SLCO1B3, Homo sapiens, UniProt Q9NPD5, M233I); uptake, substrate; HEK293-A stably expressing SLCO1B3; 2 min).
CC(C)CCCCC(=O)N[C@@H](CCN)C(=O)N[C@H](C(=O)N[C@@H](CCN)C(=O)N[C@H]1CCNC(=O)[C@H]([C@@H](C)O)NC(=O)[C@H](CCN)NC(=O)[C@H](CCN)NC(=O)[C@H](CC(C)C)NC(=O)[C@@H](Cc2ccccc2)NC(=O)[C@H](CCN)NC1=O)[C@@H](C)O has a fu of 0.101 (plasma proteins; equilibrium dialysis; human, long-term intermittent hemodialysis, plasma; intravenous, 0.75 mg/kg, 4 h, 37 °C).
N[C@@H](CCCCNC(=O)CCCC[C@@H]1SC[C@@H]2NC(=O)N[C@@H]21)C(=O)O — result for “log2 fold change”: -0.00388 (binding, MIDAS equilibrium dialysis LC-MS; A2AR-BRIL thermostabilized; concentration not given; reference: no-protein control).
For COc1cccc(-c2cccc(Nc3nccc(NC4CCCCC4)n3)c2)c1, the Papp (A-B) was 0.016 ± 0.018 ×10⁻⁶ cm/s (P-glycoprotein (human MDR1); MDR1-MDCKII; 10 µM, 1 h, pH 7.4).
With C=CC(=O)Nc1cc(Nc2nccc(-c3cn(C)c4ccccc34)n2)c(OCC(F)(F)F)nc1N(C)CCN(C)C the fraction metabolised was under 1% (CYP2D6; substrate depletion, substrate; recombinant human enzymes).
For CC(C)Nc1ccnc(Nc2cccc(C(C)(C)C)c2)n1, the Papp (A-B) was 1.94 ± 0.66 ×10⁻⁶ cm/s (P-glycoprotein (human MDR1); MDR1-MDCKII; 10 µM, 1 h, pH 7.4).
With C[C@H]1CN(C2COC2)CCN1c1ccc(Nc2cc(-c3ccnc(N4CCn5c(cc6c5CC(C)(C)C6)C4=O)c3CO)cn(C)c2=O)nc1 the remaining compound was 57 ± 6.7% (human CYP2C8; human liver microsomes; 1 µM, 60 min, pH 7.4, with: montelukast 2 µM, NADPH; reference: 0 min).
O=C(c1ccc(C(=O)N2CCC(N3CCCC3)CC2)c(Nc2ccccc2)c1)N1CCC(N2CCCC2)CC1: “FRAP recovery half-time” 7 s (Lethal(3)malignant brain tumor-like protein 3, MBT domains (Homo sapiens, UniProt Q96JM7); FRAP; human cells; 0.01 µM).
C[C@H](CCC(=O)NCC(=O)O)[C@H]1CC[C@H]2[C@@H]3[C@H](O)C[C@@H]4C[C@H](OS(=O)(=O)O)CC[C@]4(C)[C@H]3CC[C@]12C has an uptake velocity of 3.7 ± 1 pmol/min/mg protein (Solute carrier family 22 member 11 (SLC22A11, Homo sapiens, UniProt Q9NSA0); HEK293 control cells).
NCc1cc2c(cc1F)C(=O)N(C1CCC(=O)NC1=O)C2 (stereo not drawn) has a concentration of 3.6 µM (Amine oxidase [flavin-containing] B (MAOB, Homo sapiens, UniProt P27338); substrate, LC-MS/MS; recombinant enzyme; 10 µM, 20 h, pH 7.4).
The activation of COC(=O)c1cn(C)c2ccc(-c3cccnc3)cc12 is reported as 1.12 fold (NR1I2; reporter gene, agonist, Gal4 hybrid reporter; HEK293T transiently transfected; 10 µM, 16 h, 0.1% DMSO; reference: vehicle).
[11CH3]Oc1cccc(CCc2cc(O)c(=O)[nH]n2)c1: “increase in brain uptake” “no effect” (ATP-dependent translocase ABCB1 (Abcb1a, Mus musculus, UniProt P21447); CD-1 mice, brain; concentration not given, 30 min, with: cyclosporine; reference: without cyclosporine).
